Assay results gathered from unrelated publications.
Lines come from different studies, so protocols differ. Values joined by “and” are separate records of one study, mostly repeats; a detail may differ. ± marks the error that the study gave.

`O=C(c1ccc(Cl)cc1)N1CCN2C(=O)N(OC(=O)N3CCOc4ccccc43)C(=O)C2C1` (centres unmarked) gave a median ratio of 1.1 (Serine hydrolase RBBP9 (Homo sapiens, UniProt O75884); enzyme activity, inhibitor, MS-based ABPP; SW-620 in situ; 10 µM, 2 h, 37 °C; relative to: compound over DMSO, lower = stronger inhibition).
For `COc1ccc(F)cc1C(=O)NCc1ccc(-c2nn([C@@H](C)C(F)(F)F)c(N)c2C(N)=O)cc1`, the residence time was 105 min (Tyrosine-protein kinase BTK, non-phosphorylated (BTK, Homo sapiens, UniProt Q06187); binding).
`O=C(Nc1cnccc1Cl)N1CCN(Cc2ccc3c(c2)OC(F)(F)O3)CC1` has an inhibition of -4% and 6% (Calcitonin gene-related peptide type 1 receptor (CALCRL, Homo sapiens, UniProt Q16602); radioligand binding; concentration not given).
With `COc1ccc(N2C(=O)N(c3c(C)cccc3Cl)Cc3cnc(Nc4ccc(C5CCN(C)CC5)cc4OC)nc32)nc1` the inhibition was 50% (Mitogen-activated protein kinase kinase kinase kinase 1 (MAP4K1, Homo sapiens, UniProt Q92918); kinase activity; 0.5 µM).
`C[C@H]1CN(c2n[nH]c3nc(N[C@H]4CC[C@H](NS(=O)(=O)CCC(F)(F)F)CC4)ncc23)CCO1` gave a relative abundance of 1.03 (Ephrin type-A receptor 3 (EPHA3, Homo sapiens, UniProt P29320); inhibitor, Kinobeads competition profiling; 0.8 µM; relative to: vehicle).
`COc1cc(Nc2ncc(F)c(Nc3ccc4c(n3)NC(=O)C(C)(C)O4)n2)cc(OC)c1OC` gave an inhibition of 98% (Serine/threonine-protein kinase Nek5 (NEK5, Homo sapiens, UniProt Q6P3R8); KINOMEscan; 10 µM).
With `O=C(O)COP(=O)(O)O` the Ki ratio was 2.6 (TPI1 (Saccharomyces cerevisiae, UniProt P00942, S211G); enzyme activity, competitive inhibitor, GPDH/NADH-coupled; pH 8.3, 25 °C, ionic strength 0.1 NaCl, together with: glyceraldehyde 3-phosphate substrate; relative to: mutant over wild type).
For `CN(C(=O)n1cnc(-c2ccc[n+]([O-])c2)c1)C1CCCCC1`, the inhibition was 99.5% (Fatty-acid amide hydrolase 1 (Faah, Rattus norvegicus, UniProt P97612); probe labelling, inhibitor, competitive ABPP; rat brain membrane fraction; 100 µM, together with: azido-FP probe).
The activation of `CN1CCN(c2cc(-c3ccncc3)c(-c3ccc4ccccc4c3)nn2)CC1` is reported as -2.8% (Beta-2 adrenergic receptor (ADRB2, Homo sapiens, UniProt P07550); agonist, FLIPR; 12.5 µM).
For `O=C(Nc1cccnn1)N1CCC(=Cc2cccc(Oc3ccc(C(F)(F)F)cn3)c2)CC1`, the inhibition was 6% (Nociceptin receptor (OPRL1, Homo sapiens, UniProt P41146); radioligand binding, inhibitor; 50 µM, human, together with: [3H]nociceptin).
For `Nc1ncc(-c2nc(N3CCOCC3)nc(N3CCOCC3)n2)c(C(F)F)n1`, the remaining binding was 60% (Serine/threonine-protein kinase SBK1 (SBK1, Homo sapiens, UniProt Q52WX2); KINOMEscan; 10 µM).
`COc1cccc(CO)c1` has a displacement of 8 ± 2% (Adenosine receptor A2a (ADORA2A, Homo sapiens, UniProt P29274); binding, radioligand competition; 10 µM, together with: [3H]ZM241385).
`[2H]c1c([2H])c([C@]2([2H])CCCN2C(=O)C(C)(C)Oc2ccc3cn[nH]c3c2)c([2H])c([2H])c1C([2H])([2H])[2H]` has a remaining binding of 84% (Serine/threonine-protein kinase NIM1 (NIM1K, Homo sapiens, UniProt Q8IY84); KINOMEscan; 1 µM; relative to: DMSO control).
`C[C@H]1COCCN1c1nc(NCc2cccnc2C(F)(F)F)c2cccnc2n1` has an IC50 of over 100 µM (Alpha-2A adrenergic receptor (ADRA2A, Homo sapiens, UniProt P08913); binding; CEREP panel).

Some of these lines once more:
`COc1cccc(CO)c1` has a displacement of 8 ± 2% (Adenosine receptor A2a (ADORA2A, Homo sapiens, UniProt P29274); binding, radioligand competition; 10 µM, together with: [3H]ZM241385).
